Values quoted from earlier work, collected from citations in different studies.
Protocols differ between the studies behind these lines. ± gives the spread as reported.
Chain of UniProt Q9UBF8 (whole entry, looked up): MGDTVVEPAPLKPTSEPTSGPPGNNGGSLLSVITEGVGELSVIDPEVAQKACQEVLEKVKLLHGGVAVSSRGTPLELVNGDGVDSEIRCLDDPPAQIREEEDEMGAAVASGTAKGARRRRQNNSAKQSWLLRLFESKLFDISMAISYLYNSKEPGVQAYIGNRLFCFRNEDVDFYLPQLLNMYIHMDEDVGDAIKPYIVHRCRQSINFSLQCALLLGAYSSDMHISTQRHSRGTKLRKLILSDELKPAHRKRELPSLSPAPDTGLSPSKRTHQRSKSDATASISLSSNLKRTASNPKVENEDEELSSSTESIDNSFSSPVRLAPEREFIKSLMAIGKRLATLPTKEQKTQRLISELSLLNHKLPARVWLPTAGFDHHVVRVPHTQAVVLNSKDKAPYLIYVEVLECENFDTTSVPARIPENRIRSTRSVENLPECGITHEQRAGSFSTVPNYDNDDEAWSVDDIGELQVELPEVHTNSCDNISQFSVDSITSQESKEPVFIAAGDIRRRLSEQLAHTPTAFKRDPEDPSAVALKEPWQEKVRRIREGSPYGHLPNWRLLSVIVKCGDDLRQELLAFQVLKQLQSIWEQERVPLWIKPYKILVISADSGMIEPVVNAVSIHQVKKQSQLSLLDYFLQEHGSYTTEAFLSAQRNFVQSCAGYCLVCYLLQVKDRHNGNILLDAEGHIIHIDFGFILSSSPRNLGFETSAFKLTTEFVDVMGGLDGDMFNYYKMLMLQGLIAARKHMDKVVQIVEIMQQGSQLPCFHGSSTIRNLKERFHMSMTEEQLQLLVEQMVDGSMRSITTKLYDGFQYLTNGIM

Structure (SMILES)	tested on	assay	system	setting	scale	quantity	value
Nc1cc(C(F)(F)F)c(-c2nc(N3CCOCC3)nc(N3CCOCC3)n2)cn1	PI4KB (Homo sapiens, UniProt Q9UBF8)	enzyme activity	–	10 µM	relative to: untreated	remaining activity	95%
CC1(C)CCC(CN2CCN(c3ccc(C(=O)NS(=O)(=O)c4ccc(NCC5CCOCC5)c([N+](=O)[O-])c4)c(Oc4cnc5[nH]ccc5c4)c3)CC2)=C(c2ccc(Cl)cc2)C1	–	legacy population PK model	human	dose not given	–	apparent central volume (V2/F)	118 L
Nc1ccn([C@@H]2CS[C@H](CO)O2)c(=O)n1	–	–	rat	5 mg/kg	–	oral bioavailability	80%
CC(C)NCC(O)COc1cccc2ccccc12 (stereo not shown)	–	–	rat	–	–	plasma clearance	76.5 mL/min/kg
CO[C@@H](C)Cn1c(=O)n(C)c2cnc3ccc(-c4cncc(C(C)(C)O)c4)cc3c21	–	–	human	325 mg once daily, steady state, day 15	–	AUC(0-tau)	5540 ng·h/mL
CCCCC(CC)C(=O)O (stereo not shown)	–	craniofacial deformation	zebrafish embryo	nominal concentration	–	EC10	12 µM
C=CC(=O)N1CCC([C@@H]2CCNc3c(C(N)=O)c(-c4ccc(Oc5ccccc5)cc4)nn32)CC1	–	–	human patients	oral, 160 mg once daily, day 1	–	AUC(0-8h)	1270 ± 579 ng·h/mL
Cn1ncnc1[C@H]1c2n[nH]c(=O)c3cc(F)cc(c23)N[C@@H]1c1ccc(F)cc1	–	–	human	–	–	absorption lag time	0.243 h
COc1cc2ncnc(Nc3ccc(F)c(Cl)c3)c2cc1OCCCN1CCOCC1	–	–	human	dose not given, empty stomach	–	reduction in drug exposure	34%
CO/N=C(\C(=O)N[C@@H]1C(=O)N2C(C(=O)O)=C(CSc3nc(=O)c(=O)[nH]n3C)CS[C@H]12)c1csc(N)n1	–	–	healthy Chinese subjects	–	–	t_half	8.5 h
COc1cc2c(Oc3ccc4[nH]c(C)cc4c3F)ccnc2cc1OCC1(N)CC1	–	–	human	10 mg/day, two cycles	–	AUC(0-42 days)	1550 ± 864 ng·h/mL
C#C[C@]1(O)CC[C@H]2[C@@H]3CCc4cc(O)ccc4[C@H]3CC[C@@]21C	–	–	HCl fasted stomach medium	0.5 h	–	cumulative release	81%
CC(=O)N[C@@H]1CCC[C@H](C(=O)Nc2cc(-c3cnn4c3CC(C)(C)C4)c(Cl)cn2)C1	–	–	rat	–	–	half-life	10.8 min
CC(C)c1nc(CN(C)C(=O)N[C@H](C(=O)N[C@@H](Cc2ccccc2)C[C@H](O)[C@H](Cc2ccccc2)NC(=O)OCc2cncs2)C(C)C)cs1	–	–	human	concentration not given, maximum at approved doses	–	CSF concentration	2.63 to 32 nM
CC1(C)S[C@@H]2[C@H](NC(=O)[C@H](N)c3ccccc3)C(=O)N2[C@H]1C(=O)O	Klebsiella pneumoniae	–	clinical isolate RKI-No_908/15	–	–	MIC	> 16 µg/mL
O=C(c1cccnc1-c1ccncc1)N1CCC(O)(Cc2ccccc2)CC1	–	–	urine	oral, 300 mg [14C]-labelled, single, time not given	–	dose recovered	94.8%
Cc1cc(-c2nccc3c2ccn3CC(=O)Nc2ccc(-c3cnccn3)cn2)ccn1	–	item: total drug	rat	100 mg/kg/day, 14-day dose-range finding	–	Cmax	14.6 µM
CNC(C)C1CCC(N)C(OC2C(N)CC(N)C(OC3OCC(C)(O)C(NC)C3O)C2O)O1 (stereo not shown)	Klebsiella pneumoniae	–	clinical isolate RKI-No_68/16	–	–	MIC	≤ 0.5 µg/mL
CN(C)C(=N)N=C(N)N	–	–	patients with liver failure	–	–	rate constant k13	0.0874 min⁻¹
CN(C)C(=O)c1cc2cnc(Nc3ccc(N4CCNCC4)cn3)nc2n1C1CCCC1	–	–	dog	dose not given	–	oral bioavailability	64%
Nc1ccn([C@@H]2O[C@H](CO)[C@@H](O)C2(F)F)c(=O)n1	–	–	metastatic pancreatic cancer patients	dose not given	–	sepsis incidence	2%
Nc1nnc(-c2cccc(Cl)c2Cl)c(N)n1	–	–	mouse	i.p., 6 Hz seizure test, 32 mA	–	protective index	0.5
O=C(O)CN1CCN(CC(=O)O)CCN(CC(=O)O)CCN(CC(=O)O)CC1	–	pH-potentiometry, item: logK2H	0.15 M NaClO4	25 °C	–	protonation constant (log)	9.5
Cc1cn([C@@H]2C[C@@H](O)[C@H](CO)O2)c(=O)[nH]c1=O	–	–	rat	10 mg/kg	–	oral bioavailability	60%
C[C@H]1COCCN1c1nc(-c2cnc(N)cc2C(F)F)nc(N2CCOCC2)n1	HCT-15	–	–	–	–	GI50	0.402 µM

For quick reference, copied from above:
Structure (SMILES)	tested on	assay	system	setting	scale	quantity	value
CC1(C)CCC(CN2CCN(c3ccc(C(=O)NS(=O)(=O)c4ccc(NCC5CCOCC5)c([N+](=O)[O-])c4)c(Oc4cnc5[nH]ccc5c4)c3)CC2)=C(c2ccc(Cl)cc2)C1	–	legacy population PK model	human	dose not given	–	apparent central volume (V2/F)	118 L
Nc1cc(C(F)(F)F)c(-c2nc(N3CCOCC3)nc(N3CCOCC3)n2)cn1	PI4KB (Homo sapiens, UniProt Q9UBF8)	enzyme activity	–	10 µM	relative to: untreated	remaining activity	95%
Cn1ncnc1[C@H]1c2n[nH]c(=O)c3cc(F)cc(c23)N[C@@H]1c1ccc(F)cc1	–	–	human	–	–	absorption lag time	0.243 h
CNC(C)C1CCC(N)C(OC2C(N)CC(N)C(OC3OCC(C)(O)C(NC)C3O)C2O)O1 (stereo not shown)	Klebsiella pneumoniae	–	clinical isolate RKI-No_68/16	–	–	MIC	≤ 0.5 µg/mL
